{"data": "Measured values from different studies", "note": "Protocols differ between the studies behind these lines. Numbers after ± are the reported error."}
{"Compound": "NC(=O)[C@H]1CCN(c2ncnc(N)c2F)C[C@@H]1N1CCC[C@@H](Nc2cc(Cl)cc(C(F)(F)F)c2)C1=O", "system": "B-cell malignancy patients", "setting": "oral, 328 mg twice daily, dose", "measurement": "grade ≥3 neutropenia", "result": "0%"}
{"Compound": "O=C(C1CCCCC1)N1CC(=O)N2CCc3ccccc3[C@@H]2C1", "system": "NMRI mouse, female, S. mansoni-infected, plasma", "setting": "oral, 400 mg/kg, dosed as racemate", "measurement": "AUC of (R)-enantiomer", "result": "11.4 µM·h"}
{"Compound": "O=C(Nc1ccccc1)C1CCN(C(=O)Oc2cccnc2)CC1", "assay": "psychotropic effects VAS", "system": "healthy women", "setting": "20 mg", "how to read": "relative to: pre-dose baseline, direction not given", "measurement": "change in High score", "result": 8.5}
{"Compound": "COc1ccnc(C(=O)N[C@H]2COC(=O)[C@H](Cc3ccccc3)[C@@H](OC(=O)C(C)C)[C@H](C)OC2=O)c1OCOC(=O)C(C)C", "system": "tomato, fruit", "setting": "foliar, dose not given", "measurement": "share of total radioactive residue", "result": "≤ 95 % TRR"}
{"Compound": "Oc1ccc(Cl)c(-c2ccc(Cl)cc2Cl)c1Cl", "assay": "enantioselective gas chromatography", "system": "racemized sample", "setting": "column temperature 160 °C", "measurement": "enantiomeric fraction", "result": 0.51}
{"Compound": "CC(C)C[C@H](NC(=O)[C@H](CCCCN)NC(=O)OCC1c2ccccc2-c2ccccc21)C(=O)N[C@H](C(=O)N[C@@H](Cc1ccccc1)C(=O)N[C@@H](Cc1ccccc1)C(=O)N[C@@H](CCCCN)C(=O)NCC(=O)N[C@@H](Cc1ccccc1)C(=O)N[C@@H](C)C(=O)N[C@@H](Cc1c[nH]c2ccccc12)C(=O)N[C@@H](CC(N)=O)C(=O)N[C@H](C(=O)N[C@H]1CSSC[C@@H](C(=O)N[C@@H](Cc2c[nH]cn2)C(=O)N[C@@H](CCCNC(=N)N)C(=O)N[C@@H](CCCNC(=N)N)C(=O)N[C@@H](C)C(=O)N[C@@H](CC(N)=O)C(N)=O)NC(=O)[C@H](C(C)C)NC(=O)[C@H](CCCNC(=N)N)NC(=O)[C@H](C(C)C)NC(=O)CNC(=O)[C@H](CC(N)=O)NC(=O)[C@H](CCCNC(=N)N)NC(=O)[C@H](Cc2ccc(O)cc2)NC(=O)[C@H](C(C)C)NC1=O)C(C)C)C(C)C", "system": "ICR mice, serum", "setting": "intraductal mammary, 5 mg/kg, day 5", "measurement": "blood urea nitrogen", "result": "10.5 ± 0.64 mmol/L"}
{"Compound": "C[C@H]1CN(C(=O)CC#N)[C@]12CCN(c1ncnc3[nH]ccc13)C2", "system": "rat male", "setting": "oral, 30 mg/kg repeated daily, 3 months, repeated-dose toxicity study", "measurement": "AUC at NOAEL", "result": "12800 ng·h/mL"}
{"Compound": "CCCC1CCC(C2CCC(c3ccc(F)c(F)c3)CC2)CC1 (centres unmarked)", "system": "rat, placenta", "setting": "5000 ng/mL in perfusate, high dose, mixture of 21 LCMs", "measurement": "placental accumulation", "result": "673 ± 1010 ng/g"}
{"Compound": "C[C@@H]1OC(=O)NN=C1c1ccc(-c2ccc(F)cc2)c(C(F)(F)F)c1", "assay": "phase I trial, measured: Pneumonitis worst grade 3", "system": "human patients", "setting": "20 mg loading then 1 mg daily", "measurement": "patients with adverse event", "result": "50%"}
{"Compound": "NCCCC[C@@H]1NC(=O)[C@@H](Cc2c[nH]c3ccccc23)NC(=O)[C@H](c2ccccc2)NC(=O)[C@@H]2C[C@@H](OC(=O)NCCN)CN2C(=O)[C@H](Cc2ccccc2)NC(=O)[C@H](Cc2ccc(OCc3ccccc3)cc2)NC1=O", "system": "healthy volunteers", "setting": "subcutaneous, 600 µg twice daily, day 5, 0.25 h", "measurement": "QTcI change from baseline", "result": "-3.9 ms"}
{"Compound": "CC(C)Nc1ccnc(Nc2cccc(-c3cccnc3)c2)n1", "assay": "measured: BUN", "system": "mouse, blood", "setting": "intraperitoneal, 10 mg/kg", "measurement": "blood chemistry", "result": "24.3 mg/dL"}
{"Compound": "COc1cc2c(Oc3ccc4[nH]c(C)cc4c3F)ccnc2cc1OCC1(N)CC1", "system": "paediatric recurrent refractory sarcoma", "setting": "12 mg", "measurement": "grade 1 or 2 Proteinuria", "result": "0%"}
{"Compound": "C[C@H](O)c1cnc(NS(=O)(=O)c2ccc(C(F)(F)F)c(Cl)c2)nc1", "system": "hepatocytes, HSD17B13 knockout with AAV control, C57BL/6J mouse, male", "setting": "1 µM", "measurement": "apparent intrinsic clearance", "result": "< 1.9 µL/min/10⁶ cells"}
{"Compound": "N=C(N)NCCC[C@@H](NC(=O)[C@@H](N)Cc1ccccc1)C(=O)N[C@@H](Cc1ccccc1)C(=O)N[C@@H](CCCCN)C(N)=O", "assay": "LC-MS", "system": "human", "setting": "25 mg, 5.833 h", "measurement": "median amount excreted in urine", "result": "8.37e+06 ng"}
{"Compound": "C=CCNc1c(O)cc2c(O)c1C[C@@H](C)C[C@H](OC)[C@H](O)[C@@H](C)/C=C(\\C)[C@H](OC(N)=O)[C@@H](OC)/C=C\\C=C(/C)C(=O)N2", "system": "unresectable or metastatic STS, GIST, other", "setting": "intravenous, 300 mg/m^2", "measurement": "patients with infusion site pain", "result": "33%"}
{"Compound": "O=S(=O)(Nc1ccccc1)c1ccc(NC(=S)Nc2ccccc2)cc1", "assay": "measured: Bu", "system": "female mouse, blood", "setting": "oral, 20 mg/kg daily, 14 days", "measurement": "blood chemistry level", "result": "0.17 mg/dL"}
{"Compound": "N[C@@H]1c2ccccc2OC12CCN(c1cnc3c(N4CCCc5ncccc54)n[nH]c3n1)CC2", "system": "advanced solid tumour patients", "setting": "oral, 10 mg once daily", "measurement": "TEAE causing dose reduction", "result": "0%"}
{"Compound": "O=S(=O)([O-])C(F)(F)C(F)(F)C(F)(F)C(F)(F)C(F)(F)C(F)(F)C(F)(F)C(F)(F)F.[K+]", "system": "male C57BL/6J mice, EtOH-fed, plasma", "setting": "dose not given", "how to read": "relative to: efavirenz and pair-fed", "measurement": "ALT level", "result": "increased"}
{"Compound": "CC(C)[C@@H]1CC[C@@H](C)C[C@@H]1O", "assay": "acute oral toxicity OECD", "system": "Swiss albino mice, serum", "setting": "oral, 300 mg/kg", "measurement": "direct bilirubin", "result": "0.11 ± 0.04 mg/dL"}
{"Compound": "CC(=O)c1c(C)c2cnc(Nc3ccc(C4CCN(CCS(C)(=O)=O)CC4)cn3)nc2n(C2CCCC2)c1=O", "system": "HR+/HER2- advanced breast cancer patients", "setting": "oral, 25 mg", "measurement": "patients with TEAE grade ≥3", "result": "33.3%"}
{"Compound": "CCCCCOc1ccc(-c2ccc(-c3ccc(C(=O)N[C@H]4C[C@@H](O)[C@@H](OCC[N+](C)(C)C)NC(=O)[C@@H]5[C@@H](O)[C@@H](C)CN5C(=O)[C@H]([C@@H](C)O)NC(=O)[C@H]([C@H](O)[C@@H](O)c5ccc(O)cc5)NC(=O)[C@@H]5C[C@@H](O)CN5C(=O)[C@H]([C@@H](C)O)NC4=O)cc3)cc2)cc1", "system": "adult ICU patients, mITT, serum", "setting": "dose not given, day 30", "measurement": "aspartate aminotransferase", "result": "23.3 U/L"}
{"Compound": "O=C1Nc2cc3[nH]nc(-c4ccncc4)c3cc2CN1Cc1ccccc1", "assay": "CTCAE v4.03", "system": "advanced solid tumour patients", "setting": "intravenous, 3.6 mg/kg", "measurement": "patients with dyspepsia", "result": "0%"}
{"Compound": "C[C@]1(CO)Cc2ncn(-c3ccc(C#N)c(Cl)c3)c2C(=O)O1", "system": "Japanese subjects", "setting": "80 mg single dose", "measurement": "drug-related adverse event incidence", "result": "0%"}
{"Compound": "COc1ncccc1-c1cnn2ccc(N3CCN(C(=O)OC(C)C)CC3)nc12", "system": "mouse nerve ligation model, plasma", "setting": "oral, 30 mg/kg, 120 min after last dose, repeat dosing day 3", "measurement": "drug concentration", "result": "7.4 µM"}
{"Compound": "C=CC(=O)N1CC[C@H](n2nc(C#Cc3cc(OC)cc(OC)c3)c3c(N)ncnc32)C1", "system": "human patients", "setting": "oral, dose not given, QD regimen, adverse drug reaction, with: sevelamer hydrochloride", "measurement": "AST increased, any grade", "result": "18.2%"}
{"Compound": "Cc1ccc(F)c2cc(C(=O)N[C@@H]3CCC[C@H](N4CC[C@H](N(C)S(C)(=O)=O)C4)C3)[nH]c12", "system": "CD1 mouse", "setting": "oral, 100 mg/kg", "measurement": "oral bioavailability", "result": "63.4%"}
{"Compound": "C[C@@H](NC(=O)N1C(=O)[C@H](Cc2ccnc(N)c2)[C@H]1C(=O)O)C1CCCCC1", "system": "healthy adult Chinese volunteers", "setting": "continuous intravenous infusion, 1.0 mg/kg/h, 5-day infusion, CTCAE 5.0 grading", "measurement": "incidence of diarrhea", "result": "0%"}
{"Compound": "CCC(C(=O)Nc1cc(NC2COC2)ccc1C)n1cc(Br)cc2nc(SCc3ccc(F)cc3)nc1-2 (centres unmarked)", "system": "mouse, liver microsomes", "measurement": "intrinsic clearance", "result": "2500 mL/min/g protein"}
{"Compound": "Cn1cncc1-c1c(F)cncc1NC(=O)c1c(N)nn2cc(F)cnc12", "system": "human patients", "setting": "oral, 270 mg once daily", "measurement": "grade ≥3 hyperkalaemia incidence", "result": "0%"}
{"Compound": "COc1ccc(-c2c(-c3ccc(C#N)c(F)c3)nc(N3CCC(N)CC3)n(C)c2=O)cc1F", "assay": "measured: Neutropenia", "system": "human patients", "setting": "oral, dose not given, any grade, dose escalation, NG", "measurement": "treatment-related adverse event incidence", "result": "12%"}
{"Compound": "Cn1cc(-c2nc(N[C@@H]3CCCC[C@@H]3N)c(F)c3c2C(=O)NC3)cn1", "assay": "measured: Cerebral haemorrhage", "system": "patients with relapsed or refractory AML", "setting": "oral, dose not given, all doses", "measurement": "hemorrhagic adverse events", "result": "1 number of patients"}
{"Compound": "CC(C)[C@H](O)C(=O)N[C@H]1Cc2ccc3c(c2)[C@]2(C4=C(c5nc(CO)co5)N=C(O4)[C@H](C(C)(C)C)NC1=O)c1cc(F)ccc1N[C@@H]2O3", "system": "NSG mice, brain", "setting": "intravenous, 10 mg/kg, single dose at MTD, with: paclitaxel 40 mg/kg", "measurement": "AUC(0-t)", "result": "284 ng·h/mL"}
{"Compound": "O=C(O)CCCOc1ccc(F)cc1-c1cc(-c2ccccc2C(F)(F)F)n(-c2ccccc2)n1", "system": "female Crl:CD(SD) rats, brain", "setting": "intravenous, 25 µg/kg, 1 d", "measurement": "relative organ weight", "result": "0.89 ± 0.05 g%"}
{"Compound": "CO[C@H]1C[C@@H]2CC[C@@H](C)[C@@](O)(O2)C(=O)C(=O)N2CCCC[C@H]2C(=O)O[C@H]([C@H](C)C[C@@H]2CC[C@@H](OC(=O)NCCOCCOCCOCCOCCOCCOCCOCCOCCC(=O)N3CCc4cc(Cn5nc(-c6ccc7oc(N)nc7c6)c6c(N)ncnc65)ccc4C3)[C@H](OC)C2)C[C@@H](O)[C@H](C)/C=C(\\C)[C@@H](O)[C@@H](OC)C(=O)[C@H](C)C[C@H](C)/C=C/C=C/C=C/1C", "assay": "dose-escalation trial", "system": "patients with advanced solid tumours", "setting": "intravenous, 1.6 mg/3 mg weekly, grade ≥3", "measurement": "AEs leading to dose reduction", "result": "0%"}
{"Compound": "CC/C(=C(\\c1ccccc1)c1ccc(OCCN(C)C)cc1)c1ccccc1", "system": "CD-1 mouse, male, plasma", "setting": "intraperitoneal, 10 mg/kg", "measurement": "AUC(0-inf)", "result": "702 ng·h/mL"}
